Results pooled from the literature.
Every numbered part comes from another study and shows a few of its results, in no order. Substitutions count along the parent as printed.

Block 1
Target: ABI1, truncated, D143A, DHFR fusion (Arabidopsis thaliana)
Method: DHFR PCA, deep sequencing
Matrix: yeast
Notes: methotrexate growth selection, single substitutions
Together with: (+)-ABA 4.8 µM
Reference: wild-type fitted maximum
Reading: higher = stronger binding
Measurement: relative binding score
Parent: PYL1, truncated, DHFR fusion (Arabidopsis thaliana); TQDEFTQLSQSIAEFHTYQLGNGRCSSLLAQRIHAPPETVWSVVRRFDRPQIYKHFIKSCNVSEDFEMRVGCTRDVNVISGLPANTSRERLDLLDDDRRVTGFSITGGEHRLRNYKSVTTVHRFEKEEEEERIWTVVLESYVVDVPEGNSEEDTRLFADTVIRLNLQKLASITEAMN; partner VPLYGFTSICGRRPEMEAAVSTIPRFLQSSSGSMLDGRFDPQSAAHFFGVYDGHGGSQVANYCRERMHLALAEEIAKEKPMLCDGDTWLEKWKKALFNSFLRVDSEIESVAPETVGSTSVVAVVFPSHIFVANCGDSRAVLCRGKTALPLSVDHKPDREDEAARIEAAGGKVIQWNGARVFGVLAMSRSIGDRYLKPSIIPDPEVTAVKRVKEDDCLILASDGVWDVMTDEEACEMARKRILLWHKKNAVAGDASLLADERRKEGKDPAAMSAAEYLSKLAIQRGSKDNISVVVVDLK
V78E: -4.17%
P83T: 10.3%
Q167G: 56.7%
A158F: 8.27%
L164H: 74.4%
T160E: 8.7%
Q2C: 76.7%
N22F: 66.5%
A13L: 63.6%
N165H: 3.25%
D153I: -6.05%
L82V: 42.4%
D95P: -3.35%
P50W: 7.4%
E147G: 34.8%
R132L: 72.3%
A158W: -0.822%
A158N: 8.62%
H122T: 5.72%
S42H: 52.6%
Q31H: 44.1%
K54V: -5.35%
E131G: 89.2%
M176I: 60.9%
A170R: 74.8%

Block 2
Target: TAR DNA-binding protein 43, full length, His tag (TARDBP, Homo sapiens, UniProt Q13148, residues 1-414)
Method: RNA Bind-n-Seq
Form: RNA
Matrix: in vitro
Concentration: 20 nM
Notes: 6-mer, flanks averaged, single round
Together with: 150 mM KCl
Reference: input library
Reading: higher = stronger binding
Measurement: 6-mer enrichment (R)
CAAACG: 0.705
CUAACC: 0.572
UAGAAA: 0.705
UAGGGA: 2.02
UGCGUU: 0.763
UCAGAU: 0.58
GUGCAG: 1.55
UAGACU: 0.619
AUAAUC: 0.607
CUACGC: 0.645
GACCGC: 0.887
ACCUGC: 0.647
GGGGUU: 3.31
ACGACG: 0.928
CCUACA: 0.598
ACACAC: 0.667
GUAGAA: 1.03

Block 3
Target: Histone acetyltransferase KAT6A, winged helix 2, GST fusion (KAT6A, Homo sapiens, UniProt Q92794, residues 85-181)
Method: protein binding microarray
Form: double-stranded DNA, one strand shown
Matrix: in vitro
Concentration: not given
Notes: 8-mer, flanks averaged, mean of 2 arrays, mostly near background
Reference: not given
Reading: higher = stronger binding
Measurement: E-score
Residues (chain): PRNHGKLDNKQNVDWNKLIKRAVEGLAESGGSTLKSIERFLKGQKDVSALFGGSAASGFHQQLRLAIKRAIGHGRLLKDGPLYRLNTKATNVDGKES
CCCCACAA: 0.0881
GCCCGCTA: 0.025
GTAACGTA: -0.111
GCTAAAGC: 0.0584
CCAGTGTC: -0.144
GCCTCCGC: 0.0797
CGGGGGAG: -0.0235
ATAGAGGG: -0.0443
CTAGGGAC: -0.0584
GCACCGCC: 0.189
AATATCTC: -0.0229
CACAGGAC: 0.124
CGAGCCAG: 0.121
ACAGTAGA: -0.134
GGACAAGA: -0.0229
TAGTATCA: 0.0793
CGGCTCGC: 0.0767
CTTGCTAC: 0.12
CAGATCTA: -0.0698
CCTATGCG: -0.0237
TACTAGCA: 0.00967
ACGCAACG: 0.184

Block 4
Target: RNA binding protein fox-1 homolog 2, RRM domain, GST-SBP tag (RBFOX2, Homo sapiens, UniProt O43251-10, residues 100-194)
Method: RNA Bind-n-Seq
Form: RNA
Matrix: in vitro
Concentration: 365 nM
Notes: natural RNA segment, single round, ends assumed
Reference: no-protein control
Reading: higher = stronger binding
Measurement: RBNS enrichment (R)
All sequences stand within: GGGAGUUCUACAGUCCGACGAUC … UGGAAUUCUCGGGUGCCAA
Construct (chain): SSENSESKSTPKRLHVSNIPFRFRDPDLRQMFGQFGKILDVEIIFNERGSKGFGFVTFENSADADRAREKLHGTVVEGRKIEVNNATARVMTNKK
GGAUUCCUGGGCAUCUACUUCCACAACUAAUACGUAUUCCACAGUGUUGGCUGUUGGCUUCAAAAAAAGGAAUUCUCUUAACAUGCUAUGUUGGUCAGCGUCCACCUCCU: 0.595
UUUCACCCCUUGUCCUUUUCCACCCUUUUAAGAGUUACGCUAGCAGAUCUUACUCCACGUAUACUUUUUGGUUUGUGAAGGCAUCGGUUAAGGGCACAAAGACAGCCAUG: 1.26
CCUUUUGCUGUGAGUGACUUAACAGUGCAGGUUCUUGUUGCCUUCACUGUUAACCCUGAGAGCACAUAAUCUGAUGCAUGUGUGACUAAGAAUAAGCCUAUGGUCAUGGG: 6.01
UUACAGUCUUAUUUAACCAGGGGUCCUAACCACUAACAUUGUGACUUUGCUUUGAGACCUUUCCUCUCCUGGGUACUGAGGUGCUAUGAAGCCAACUGACAAAGAUGCAU: 0.52
GCCCUAAAACCUAAAUUUCAUUCAUGAAAUUUUUUUCUAAUUUUAAACACCCAGAAUCCCAUGUCCUUUGACUUGCAGUGUAGCUAUCUAGAAUGAAACACUUGCCUUGC: 0.659
GUACCAAGGAAGGUGACCAGUAUUGUUUACAGAUGAUUUUCUAAGGAAAAGUUGAGGGGGACUUAGGAAUAAUUUCCUUAUAAAAAGGAGCCUUAUUCUGUACCCCACUU: 0.245
CCAGGCCUCUAGCCUCCAUGGCUGAUGACCUCAGCUUUCACACUGGUGAAGUCUGUGUACCCAUACUGCAGCCCCAUCCCAUGGGGCCCCUGAAGACCCACUGAGGAAUU: 0.281
CAUCUGCUGGUCAUUUCGCCCUGACAGUCCCAACCAGAACCCCUGGGACUUGAAUCCAGAGACGUCCUCCAGGAACCCCUCAACGAAGCUGUGAAUGAAGAGGUUUCCUC: 0.559
UGGCCUACGGUGAUGCCUGUGGUGAUGCCAGGUUGUCCGCUCACAUGAGUCCCAUCUGUAAAUUCUUUGCUCCCUUCUCCGAUGCUGCCACCCAAGGCCUUCUCCUGCCU: 0.787
UUAGGGGCUUGGGGUUUUCCUGAGGCAAGAGGUCAUGGCUGAAUGGGCCUGUGCCGUGAAUUGAAUGGAACACUACUUUGAGGCCCUUGGAGAGUGACAGCAGCUAUAGG: 0.883
ACCAGGCCAGUCUCCACUCCUCACAAGGAUCUAUGAUGAGCUGCGCAAUUCUUCCCAGGGCCCUGUGACCCUGUGUUCCACCCCGACCCCACACUGGACUAGUCUAUGCC: 0.267
UCUAAACCUGAAGUAUAAUUAUAUGCAGUGCUUCUUAAGGCUUCAUAAAAUAAUUUUCCAACCUUUUAAAAAUAUGUUUCUUUCAUUGUUUUAUACCUAACCUUGCAGAC: 0.745

Block 5
Target: Sal-like protein 4, full length isoform B (SALL4, Homo sapiens, UniProt Q9UJQ4-2, residues 1-616)
Method: universal PBM
Form: double-stranded DNA, one strand shown
Matrix: in vitro
Concentration: not given
Notes: 8-mer, flanks averaged, mean of replicates
Reading: higher = stronger binding
Measurement: E-score
Target sequence (chain): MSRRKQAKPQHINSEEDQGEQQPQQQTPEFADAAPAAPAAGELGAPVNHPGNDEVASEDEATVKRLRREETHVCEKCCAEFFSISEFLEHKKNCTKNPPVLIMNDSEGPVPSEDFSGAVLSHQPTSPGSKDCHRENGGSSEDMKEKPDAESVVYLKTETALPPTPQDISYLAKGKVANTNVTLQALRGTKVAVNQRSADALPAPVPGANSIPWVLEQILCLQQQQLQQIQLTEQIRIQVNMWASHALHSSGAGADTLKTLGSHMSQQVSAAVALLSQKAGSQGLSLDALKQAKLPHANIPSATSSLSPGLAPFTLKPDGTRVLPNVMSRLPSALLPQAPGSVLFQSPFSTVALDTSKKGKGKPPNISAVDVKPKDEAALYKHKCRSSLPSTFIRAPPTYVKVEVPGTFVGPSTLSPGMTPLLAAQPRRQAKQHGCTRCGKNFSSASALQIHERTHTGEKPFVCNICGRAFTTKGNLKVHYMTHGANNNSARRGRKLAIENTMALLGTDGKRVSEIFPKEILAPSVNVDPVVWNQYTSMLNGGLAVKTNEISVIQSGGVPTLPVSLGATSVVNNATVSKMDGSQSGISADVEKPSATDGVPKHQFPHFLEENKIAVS
AGACGTAC: -0.0192
CTGTTACC: -0.0138
CCTGAAAC: 0.0151
ATTTATGC: 0.351
ACGTCCCC: -0.132
TCACAACA: 0.18
AGGAGTGC: -0.179
CTATAGCA: 0.231
GCGTACGA: -0.0475
CCAGCTGG: -0.233
AAACTGGT: -0.106
CTATTAGA: 0.17
AAAGCTCC: -0.271
CAATGTGG: -0.00149
GCCGCTGA: -0.162
GATCGTCA: 0.127
CTCAAATA: 0.23
AAGATATT: 0.265
TACAAGGA: -0.0481
ATAGACGA: 0.19
CGAAGAAC: -0.0387
ATGTGTAA: 0.239
ATTATAAC: 0.342

Block 6
Target: Fragile X messenger ribonucleoprotein 1, C-terminal low-complexity region (Fmr1, Mus musculus, UniProt P35922)
Method: RNA Bind-n-Seq
Form: RNA
Matrix: in vitro
Concentration: 200 nM
Notes: whole 134-nt RNA, ends assumed
Together with: 150 mM KCl
Reference: input library
Reading: higher = stronger binding
Measurement: log2 enrichment
All sequences stand within: GGGAGUUCUACAGUCCGACGAUC … UGGAAUUCUCGGGUGUCAAGG
CCUCAAGUCCUGUGCUACACAUCGUAUGUACCGAAUCGGAAAGGUGGAAAGGAAAGUAUUAUGUUACGCCGUUCGGAUCUGCACUUCCAG: 0.0567
UGUUCUGCAGAGGGGCGGUGUCAUUACUGAUGAAGAGGAAACCUCUAAGAAGAUAGCUGACCAGUUGGACAACAUUGUGGACAUGCGCGA: -1.73
CCUCAAGUCCUGUGCUACACAUCGUAUGUACCGAAUCGGAAAGGUUUGGUGGAAAGUAUUAUGUUACGCCGUUCGGAUCUGCACUUCCAG: -0.339
AAGUCCUGUGCUACACAUCGUAUGUACCGAAUCGGGGAAAAGGGAAAAGGAAAAGGGAAAGUAUUAUGUUACGCCGUUCGGAUCUGCACU: -0.116
UCCUGUGCUACACAUCGUAUGUACCGAAUCGGUUUUUUGGGGUUUUUUGGGGUUUUUUGGAAAGUAUUAUGUUACGCCGUUCGGAUCUGC: 0.0133
ACCAUGCAGGUGGGCAUCUUUGGGAAGUGGGGCAUGGGGGGGAUAGGGAGGGGGGUAACACUUUGGGAACAGGUGGUCCCAGGUCGUUUC: 0.876
UCAAGUCCUGUGCUACACAUCGUAUGUACCGAAUCGGCCCGGGGCCCGGCCCGGGAAAGUAUUAUGUUACGCCGUUCGGAUCUGCACUUC: -0.524
UCAAGUCCUGUGCUACACAUCGUAUGUACCGAAUCGGGGUUUGGUUUGGGUUUGGAAAGUAUUAUGUUACGCCGUUCGGAUCUGCACUUC: -0.174
UAACUUUAGAGGAGGAUCUGAUGGAUAUGGCAGUGGACGUGGAUUUGGGGAUGGCUAUAAUGGGUAUGGAGGAGGAACUGGAGGUGGCAA: 0.32
CUCAAGUCCUGUGCUACACAUCGUAUGUACCGAAUCGGGUUGGUUGGGUUGGGGAAAGUAUUAUGUUACGCCGUUCGGAUCUGCACUUCC: 0.885
CUGUGCUACACAUCGUAUGUACCGAAUCGGGGAAAAAGGGGAAAAAGGGGAAAAAAAGGGGAAAGUAUUAUGUUACGCCGUUCGGAUCUG: -0.378
GUCCUGUGCUACACAUCGUAUGUACCGAAUCGGGAAAAAAAGGGUUUUUGGGUUUGGGAAAGUAUUAUGUUACGCCGUUCGGAUCUGCAC: -0.318
UGGCCCUGGUGGCAUGCGGGGAGGAAGAGGUGGCCUCAUGGAUCGUGAUGGUCCCGGUGGAAUGUUCAGAGGUGGCCGUGGUGGAGACAG: -0.0858
CACAGACAACACGCACCCACACAGACACAGAGGGAAGGAAAUGGGAUGGGGACAGGGUGCACAGCAGGGCGGGGUAGGACCCCAGCCCCU: 1.31

Excerpt of the above (block 5):
GCCGCTGA: -0.162
AAGATATT: 0.265
GATCGTCA: 0.127
CTATAGCA: 0.231
CTGTTACC: -0.0138
CTCAAATA: 0.23
TCACAACA: 0.18
ACGTCCCC: -0.132
ATGTGTAA: 0.239
GCGTACGA: -0.0475
CCAGCTGG: -0.233
ATTATAAC: 0.342
CAATGTGG: -0.00149
AAAGCTCC: -0.271
ATTTATGC: 0.351
CGAAGAAC: -0.0387
CTATTAGA: 0.17
